Results gathered from unrelated publications.
Compare with care: the assays were run in different laboratories. ± marks the error that the study gave.
Organism: Candida albicans

pneumocandin K  MIC (broth microdilution, resazurin; ATCC 90028; 24 h, 35 °C): 0.2 µg/mL
Cl.N=C(N)N/N=C/c1ccc(-c2ccc(/C=N/Nc3ccc(F)cc3F)cc2)cc1  MIC (seven strains): 1 to 3.9 µg/mL
CCOC(=O)c1c(N)csc1-c1cn(-c2ccccc2)nc1-c1ccc(C)cc1  MIC (broth microdilution; clinical urinary isolate; compound gamma-irradiated 15 kGy): 0.125 ± 0.4 µg/mL
Cc1ccc(C(C)C)cc1.Cc1ccc(C(C)C)cc1.[Cl][Ru][Cl].[Cl][Ru][Cl]  MIC (broth microdilution; ATCC 10231; 24 to 48 h, 37 °C): 1000 µg/mL
CCc1nc(N)nc(N)c1C#CC(C)c1ccc(-c2ccc(C)cc2)cc1OC (stereo not shown)  MIC (microbial growth, resazurin; SC5314): 1.8 to 7.5 µg/mL
pneumocandin B0  MIC (broth microdilution, resazurin; ATCC 90028; 24 h, 35 °C): 1.6 µg/mL
Cl.N=C(N)N/N=C/c1ccc(-c2ccc(/C=N/Nc3ccccc3Cl)cc2)cc1  MIC (seven strains): 1 to 3.9 µg/mL
pneumocandin H  MIC (broth microdilution, resazurin; ATCC 90028; 24 h, 35 °C): 1.6 µg/mL
C/C(=N\NC(=N)N)c1ccc(/C(C)=N/NC(=N)N)cc1.Cl.Cl  MIC (seven strains): ≥ 31.3 µg/mL
O=C(/C=C/c1ccc(O)c(O)c1)O[C@@H]1C[C@](O)(C(=O)O)C[C@@H](O)[C@H]1O  MIC (microbial growth, broth dilution; 48 h): 25 µM
